Published values gathered from unrelated publications.
Each numbered part is a random draw from the data of one study; scales do not carry over between parts. Several values in a cell are separate wells, animals, samples, runs or records.
Chain of UniProt Q6PHR2 (whole entry, looked up): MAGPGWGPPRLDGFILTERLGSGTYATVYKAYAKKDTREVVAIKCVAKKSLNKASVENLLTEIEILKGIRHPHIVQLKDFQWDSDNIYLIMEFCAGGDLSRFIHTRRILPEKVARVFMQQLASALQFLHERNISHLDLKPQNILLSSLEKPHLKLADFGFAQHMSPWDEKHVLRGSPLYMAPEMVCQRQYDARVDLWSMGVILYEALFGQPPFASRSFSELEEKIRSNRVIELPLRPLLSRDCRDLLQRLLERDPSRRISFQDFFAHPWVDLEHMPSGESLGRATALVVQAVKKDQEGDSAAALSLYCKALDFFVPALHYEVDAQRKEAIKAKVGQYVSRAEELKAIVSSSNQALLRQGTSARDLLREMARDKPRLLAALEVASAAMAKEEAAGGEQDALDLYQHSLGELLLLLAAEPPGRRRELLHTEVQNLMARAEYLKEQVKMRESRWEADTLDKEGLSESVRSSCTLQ
Chain of UniProt P37173 (whole entry, looked up): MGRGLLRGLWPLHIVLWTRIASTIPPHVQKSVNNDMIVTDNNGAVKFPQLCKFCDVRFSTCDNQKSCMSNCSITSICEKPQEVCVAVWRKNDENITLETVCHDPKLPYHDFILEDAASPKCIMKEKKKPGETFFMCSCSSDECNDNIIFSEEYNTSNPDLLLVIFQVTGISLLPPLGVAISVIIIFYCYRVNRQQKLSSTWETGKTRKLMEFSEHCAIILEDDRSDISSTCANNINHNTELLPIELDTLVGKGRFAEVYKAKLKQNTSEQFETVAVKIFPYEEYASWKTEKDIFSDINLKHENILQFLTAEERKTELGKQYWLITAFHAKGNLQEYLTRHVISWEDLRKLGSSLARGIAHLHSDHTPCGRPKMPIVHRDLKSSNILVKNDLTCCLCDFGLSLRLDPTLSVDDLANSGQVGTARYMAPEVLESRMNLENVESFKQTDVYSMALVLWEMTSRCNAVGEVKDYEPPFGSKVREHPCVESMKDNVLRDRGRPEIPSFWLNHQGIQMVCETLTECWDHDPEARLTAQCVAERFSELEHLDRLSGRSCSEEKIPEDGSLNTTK
Chain of UniProt P29320 (whole entry, looked up): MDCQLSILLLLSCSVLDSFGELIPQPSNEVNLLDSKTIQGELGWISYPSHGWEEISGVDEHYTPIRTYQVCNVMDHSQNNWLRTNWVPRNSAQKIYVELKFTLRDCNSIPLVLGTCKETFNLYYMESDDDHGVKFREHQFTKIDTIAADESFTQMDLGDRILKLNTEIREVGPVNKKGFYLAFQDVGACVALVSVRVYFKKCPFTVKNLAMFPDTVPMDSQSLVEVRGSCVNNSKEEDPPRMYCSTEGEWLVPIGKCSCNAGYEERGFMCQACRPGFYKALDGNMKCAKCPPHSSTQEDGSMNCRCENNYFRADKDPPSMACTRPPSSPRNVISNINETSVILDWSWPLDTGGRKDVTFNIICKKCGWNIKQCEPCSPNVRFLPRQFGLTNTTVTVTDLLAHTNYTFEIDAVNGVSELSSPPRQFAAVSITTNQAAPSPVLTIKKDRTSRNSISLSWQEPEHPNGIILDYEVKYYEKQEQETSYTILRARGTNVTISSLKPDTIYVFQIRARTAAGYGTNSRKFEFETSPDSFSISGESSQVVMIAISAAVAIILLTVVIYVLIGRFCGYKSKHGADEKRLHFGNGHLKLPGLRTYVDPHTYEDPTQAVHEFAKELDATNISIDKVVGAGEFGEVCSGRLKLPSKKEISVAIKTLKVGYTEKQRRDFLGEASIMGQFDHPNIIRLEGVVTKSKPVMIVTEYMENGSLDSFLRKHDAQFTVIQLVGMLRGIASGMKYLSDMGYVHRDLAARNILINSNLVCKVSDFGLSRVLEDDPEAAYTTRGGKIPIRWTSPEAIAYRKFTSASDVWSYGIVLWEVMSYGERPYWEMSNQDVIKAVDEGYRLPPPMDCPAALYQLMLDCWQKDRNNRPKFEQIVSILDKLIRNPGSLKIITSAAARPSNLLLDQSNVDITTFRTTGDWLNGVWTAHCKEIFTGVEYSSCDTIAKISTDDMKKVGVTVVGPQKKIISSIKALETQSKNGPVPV
Chain of UniProt P08922 (whole entry, looked up): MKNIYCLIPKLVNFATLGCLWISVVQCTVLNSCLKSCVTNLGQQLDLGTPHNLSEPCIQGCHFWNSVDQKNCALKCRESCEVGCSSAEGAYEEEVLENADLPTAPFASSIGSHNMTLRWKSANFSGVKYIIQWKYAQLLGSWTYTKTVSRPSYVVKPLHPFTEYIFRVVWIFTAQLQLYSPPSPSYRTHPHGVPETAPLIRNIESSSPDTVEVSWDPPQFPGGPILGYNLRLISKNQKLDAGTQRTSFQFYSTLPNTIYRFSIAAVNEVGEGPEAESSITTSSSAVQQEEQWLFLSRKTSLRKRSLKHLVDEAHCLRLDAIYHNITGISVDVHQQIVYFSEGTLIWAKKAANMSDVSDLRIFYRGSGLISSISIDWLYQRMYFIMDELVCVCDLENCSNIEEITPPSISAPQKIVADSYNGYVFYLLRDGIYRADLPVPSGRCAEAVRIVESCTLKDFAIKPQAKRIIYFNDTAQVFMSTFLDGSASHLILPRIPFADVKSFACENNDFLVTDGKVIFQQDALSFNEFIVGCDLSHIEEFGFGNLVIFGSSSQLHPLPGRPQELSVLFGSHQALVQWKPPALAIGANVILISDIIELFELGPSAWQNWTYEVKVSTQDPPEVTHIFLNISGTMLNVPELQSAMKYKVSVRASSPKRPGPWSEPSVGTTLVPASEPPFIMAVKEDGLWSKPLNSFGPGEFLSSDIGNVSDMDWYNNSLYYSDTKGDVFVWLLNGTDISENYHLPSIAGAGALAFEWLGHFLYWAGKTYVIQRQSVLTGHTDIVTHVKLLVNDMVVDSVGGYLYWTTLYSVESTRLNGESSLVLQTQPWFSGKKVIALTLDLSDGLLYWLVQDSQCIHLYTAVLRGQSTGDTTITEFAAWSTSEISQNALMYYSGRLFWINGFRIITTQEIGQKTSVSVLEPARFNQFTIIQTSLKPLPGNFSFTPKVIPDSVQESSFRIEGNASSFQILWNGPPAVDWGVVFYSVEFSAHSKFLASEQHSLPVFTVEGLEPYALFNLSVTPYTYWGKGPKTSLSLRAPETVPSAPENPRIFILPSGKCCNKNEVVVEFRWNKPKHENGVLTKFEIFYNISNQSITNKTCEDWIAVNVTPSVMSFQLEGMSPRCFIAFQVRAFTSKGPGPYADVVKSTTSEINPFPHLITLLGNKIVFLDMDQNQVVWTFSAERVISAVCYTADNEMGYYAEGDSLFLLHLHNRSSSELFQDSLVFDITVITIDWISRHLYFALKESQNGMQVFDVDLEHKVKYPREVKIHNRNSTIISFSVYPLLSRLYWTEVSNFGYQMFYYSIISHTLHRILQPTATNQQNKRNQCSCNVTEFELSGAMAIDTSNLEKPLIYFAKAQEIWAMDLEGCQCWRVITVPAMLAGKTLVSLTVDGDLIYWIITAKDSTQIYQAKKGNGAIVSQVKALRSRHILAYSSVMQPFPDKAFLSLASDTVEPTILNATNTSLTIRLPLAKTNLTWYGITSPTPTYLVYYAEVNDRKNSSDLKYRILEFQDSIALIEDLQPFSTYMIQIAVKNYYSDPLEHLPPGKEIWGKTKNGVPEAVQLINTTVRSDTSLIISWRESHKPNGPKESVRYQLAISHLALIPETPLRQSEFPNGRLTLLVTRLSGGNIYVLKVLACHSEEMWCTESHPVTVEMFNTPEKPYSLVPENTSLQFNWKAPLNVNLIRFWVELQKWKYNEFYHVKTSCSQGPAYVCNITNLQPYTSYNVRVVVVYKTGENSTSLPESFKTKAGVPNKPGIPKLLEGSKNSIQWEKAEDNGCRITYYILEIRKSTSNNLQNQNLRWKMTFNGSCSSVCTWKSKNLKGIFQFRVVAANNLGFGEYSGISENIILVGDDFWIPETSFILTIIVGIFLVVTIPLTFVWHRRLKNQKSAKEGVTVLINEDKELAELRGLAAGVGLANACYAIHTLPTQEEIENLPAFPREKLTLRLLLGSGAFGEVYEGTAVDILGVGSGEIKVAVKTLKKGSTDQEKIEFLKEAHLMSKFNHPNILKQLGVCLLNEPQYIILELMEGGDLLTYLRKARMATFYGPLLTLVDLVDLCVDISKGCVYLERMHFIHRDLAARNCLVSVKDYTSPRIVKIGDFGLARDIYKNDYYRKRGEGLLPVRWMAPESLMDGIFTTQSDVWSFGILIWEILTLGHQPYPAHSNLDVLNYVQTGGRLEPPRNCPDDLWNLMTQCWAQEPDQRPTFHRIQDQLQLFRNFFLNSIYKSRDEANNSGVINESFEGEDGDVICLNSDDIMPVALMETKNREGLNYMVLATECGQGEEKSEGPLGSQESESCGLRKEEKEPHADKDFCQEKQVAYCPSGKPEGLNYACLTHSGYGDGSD
Chain of UniProt Q00526 (whole entry, looked up): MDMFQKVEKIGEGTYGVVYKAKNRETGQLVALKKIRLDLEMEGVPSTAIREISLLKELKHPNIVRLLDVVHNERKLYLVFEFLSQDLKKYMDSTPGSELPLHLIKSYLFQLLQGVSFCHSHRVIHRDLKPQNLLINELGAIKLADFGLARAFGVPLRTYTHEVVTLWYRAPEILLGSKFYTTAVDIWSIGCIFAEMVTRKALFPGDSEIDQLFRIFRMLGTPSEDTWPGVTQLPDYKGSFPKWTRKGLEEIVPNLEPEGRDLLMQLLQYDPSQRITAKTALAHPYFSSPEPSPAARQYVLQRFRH
Chain of UniProt P45984 (whole entry, looked up): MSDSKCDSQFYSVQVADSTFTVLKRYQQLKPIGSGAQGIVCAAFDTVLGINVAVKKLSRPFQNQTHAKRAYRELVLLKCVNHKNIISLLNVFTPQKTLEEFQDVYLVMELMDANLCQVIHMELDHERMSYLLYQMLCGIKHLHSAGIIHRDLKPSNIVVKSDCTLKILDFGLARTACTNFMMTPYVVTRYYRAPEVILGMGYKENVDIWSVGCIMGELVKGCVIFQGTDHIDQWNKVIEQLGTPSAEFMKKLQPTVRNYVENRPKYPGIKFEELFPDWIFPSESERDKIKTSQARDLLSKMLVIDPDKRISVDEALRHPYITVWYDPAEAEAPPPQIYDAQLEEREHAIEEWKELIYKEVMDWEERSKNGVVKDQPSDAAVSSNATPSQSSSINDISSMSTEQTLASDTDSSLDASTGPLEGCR

Study 1
Cell line: HaCaT
Concentration: 100 µM
Time: 36 h
SMILES	viability [%]
CN1CCN(CCCN2c3ccccc3Sc3ccc(C(F)(F)F)cc32)CC1	5.92
Nc1ccn([C@@H]2O[C@H](CO)[C@@H](O)[C@@H]2O)c(=O)n1	37.1
Cc1c(N(C)C)c(=O)n(-c2ccccc2)n1C	88.7
COc1ccc(OC)c(C(O)CNC(=O)CN)c1 (stereo not drawn)	97.7
CO/N=C(\C(=O)N[C@@H]1C(=O)N2C(C(=O)OCOC(=O)C(C)(C)C)=C(/C=C\c3scnc3C)CS[C@H]12)c1csc(N)n1	96.8
Oc1ccc(/C=C/c2cc(O)cc(O)c2)cc1	67.9

Study 2
Compound: Cc1nc(Cc2cccc(C(F)(F)F)c2)sc1-c1ccc(C(N)=O)nc1
Method: competition with immobilised ligand
Concentration: 1 µM
target	assay	remaining binding [%]
5'-AMP-activated protein kinase catalytic subunit alpha-2 (PRKAA2, Homo sapiens, UniProt P54646)	cell-free assay	96
Misshapen-like kinase 1 (MINK1, Homo sapiens, UniProt Q8N4C8)	cell-free assay	92
MAP/microtubule affinity-regulating kinase 3 (MARK3, Homo sapiens, UniProt P27448)	cell-free assay	86
Phosphatidylinositol 4,5-bisphosphate 3-kinase catalytic subunit alpha isoform (PIK3CA, Homo sapiens, UniProt P42336)	cell-free assay	88
Proto-oncogene tyrosine-protein kinase receptor Ret (RET, Homo sapiens, UniProt P07949)	cell-free assay	100
Ephrin type-A receptor 3 (EPHA3, Homo sapiens, UniProt P29320)	cell-free assay	88
TGF-beta receptor type-2 (TGFBR2, Homo sapiens, UniProt P37173)	cell-free assay	100
Serine/threonine-protein kinase 26 (STK26, Homo sapiens, UniProt Q9P289)	cell-free assay	83
Atypical kinase COQ8B, mitochondrial (COQ8B, Homo sapiens, UniProt Q96D53)	cell-free assay	100
Serine/threonine-protein kinase Nek5 (NEK5, Homo sapiens, UniProt Q6P3R8)	binding	35
Serine/threonine-protein kinase 25 (STK25, Homo sapiens, UniProt O00506)	cell-free assay	88
Tyrosine-protein kinase ABL1, phosphorylated (ABL1, Homo sapiens, UniProt P00519, E255K)	binding	85
Fibroblast growth factor receptor 3 (FGFR3, Homo sapiens, UniProt P22607, G697C)	cell-free assay	76
Dual specificity protein kinase CLK3 (CLK3, Homo sapiens, UniProt P49761)	cell-free assay	85
Mitogen-activated protein kinase 9 (MAPK9, Homo sapiens, UniProt P45984)	cell-free assay	100
Serine/threonine-protein kinase mTOR (MTOR, Homo sapiens, UniProt P42345)	cell-free assay	87
Serine/threonine-protein kinase ULK3 (ULK3, Homo sapiens, UniProt Q6PHR2)	cell-free assay	100
Tyrosine-protein kinase ABL1, phosphorylated (ABL1, Homo sapiens, UniProt P00519, T315I)	cell-free assay	100
Serine/threonine-protein kinase pim-2 (PIM2, Homo sapiens, UniProt Q9P1W9)	cell-free assay	64
G protein-coupled receptor kinase 3 (GRK3, Homo sapiens, UniProt P35626)	cell-free assay	100
Proto-oncogene tyrosine-protein kinase ROS (ROS1, Homo sapiens, UniProt P08922)	cell-free assay	94
Mitogen-activated protein kinase kinase kinase 9 (MAP3K9, Homo sapiens, UniProt P80192)	cell-free assay	100
Serine/threonine-protein kinase pim-3 (PIM3, Homo sapiens, UniProt Q86V86)	cell-free assay	100
Microtubule-associated serine/threonine-protein kinase 1 (MAST1, Homo sapiens, UniProt Q9Y2H9)	cell-free assay	100
Cyclin-dependent kinase 3 (CDK3, Homo sapiens, UniProt Q00526)	cell-free assay	88

Study 3
Compound: COc1cc(C(=O)OCCCN2CCCN(CCCOC(=O)c3cc(OC)c(OC)c(OC)c3)CC2)cc(OC)c1OC
Method: electrocardiography
system	setting	heart rate
mouse	intraperitoneal, 30 mg/kg, 30 min	554 beats/min and 548 beats/min and 558 beats/min
mice	intravenous, 30 mg/kg, 10 min	420 beats/min and 245 beats/min and 423 beats/min and 315 beats/min and 361 beats/min and 452 beats/min
mouse	intraperitoneal, 10 mg/kg, 10 min	562 beats/min and 578 beats/min and 570 beats/min

Study 4
Host: human
Sample: microsomes or S9
Concentration: 2 µM
Time: 0.5 h
SMILES	remaining compound [%]
CCn1nc(-c2cc(C)ccc2Cl)nc1N(C)C	5.25
CCC(C(=O)Nc1c(C)cc(C)cc1C)n1nc(C)c2c(C)onc2c1=O (stereo not drawn)	34.9
COC(=O)Nc1nc2cc(C(=O)c3ccccc3C(=O)OC(C)C)ccc2[nH]1	47.3
Cc1cc(C)cc(C(=O)c2c(C(C)C)c(=O)[nH]c(=O)n2Cc2ccnc(N)c2)c1	15.2
COc1ccccc1CNC(=O)c1cc2c(s1)CS(=O)(=O)C2	80.9

Study 5
SMILES: CC(C)n1cnc(-c2ccc(F)cc2)c1-c1ncc(C(=O)Nc2ccc(N3CCN(C)CC3)cc2)[nH]1
Method: phase 2a trial
Host: idiopathic pulmonary fibrosis patients
setting	patients with anaemia
60 mg once daily, adverse event grade 4	0%
dose not given, adverse event grade 5, all dose arms pooled	0%
30 mg once daily, adverse event grade 4	0%
dose not given, adverse event grade 2, all dose arms pooled	0%

Study 6
SMILES: CC(=O)N[C@@H](Cc1c[nH]c2ccccc12)C(=O)N[C@@H](CCC(=O)C=[N+]=[N-])C(=O)OC(C)C
Sample: EL4 tumour
Dose: dose not given
Baseline: vehicle
assay	system	log2 fold change
refers to: argininosuccinate	mouse, EL4 tumour-bearing	-1.02
refers to: N6,N6-dimethyllysine	Mus musculus	-0.306
refers to: quinate	mouse, EL4 tumour-bearing	2.71
metabolomics, refers to: 2,6-dihydroxybenzoic acid	mouse	-0.128
refers to: 3-methylhistidine	mouse, EL4 tumour-bearing	-0.494

Study 7
Cell line: mouse MPNST tumor cells
Method: high-content nuclear imaging
Refers to: cell number
Concentration: 10 µM
Time: 12 h
Notes: mean of 2 replicates
Baseline: plate mean
Direction: higher = more cells
SMILES	nuclei count
CN1C[C@H](Nc2cnn(C)c(=O)c2Br)C[C@H](c2ccccc2)C1	1.43 z-score
Cc1c(-c2ccccc2)oc2c(C(=O)OCCN3CCCCC3)cccc2c1=O	1.94 z-score
CC(C)/N=c1\cc2n(-c3ccc(Cl)cc3)c3ccccc3nc-2cc1Nc1ccc(Cl)cc1	0.664 z-score
COc1ccc(S(=O)(=O)Nc2cc(Cl)cc(Cl)c2OC)cc1N1CCNCC1	3.23 z-score
Cc1[nH]c(/C=C2\C(=O)Nc3cc(-c4ccccc4)ccc32)c(C)c1CCC(=O)O	2.49 z-score
CC(C)(C)c1ccc2cc(C#N)c(C#N)cc2c1	-2.05 z-score

For quick reference, copied from above (study 7):
SMILES	nuclei count
Cc1c(-c2ccccc2)oc2c(C(=O)OCCN3CCCCC3)cccc2c1=O	1.94 z-score
CC(C)/N=c1\cc2n(-c3ccc(Cl)cc3)c3ccccc3nc-2cc1Nc1ccc(Cl)cc1	0.664 z-score
COc1ccc(S(=O)(=O)Nc2cc(Cl)cc(Cl)c2OC)cc1N1CCNCC1	3.23 z-score
Cc1[nH]c(/C=C2\C(=O)Nc3cc(-c4ccccc4)ccc32)c(C)c1CCC(=O)O	2.49 z-score
CC(C)(C)c1ccc2cc(C#N)c(C#N)cc2c1	-2.05 z-score
